# Measurements gathered from unrelated publications.
# Values joined by “and” are separate records of one study, mostly repeats; a detail may differ. ± gives the spread as reported.
# CASP3: Caspase-3 (CASP3, Homo sapiens, UniProt P42574)
# ADRA1B: Alpha-1B adrenergic receptor (ADRA1B, Homo sapiens, UniProt P35368)
# B4GALT1: Beta-1,4-galactosyltransferase 1 (B4GALT1, Homo sapiens, UniProt P15291)
# GBA2: Beta-glucosidase (GBA2, Homo sapiens, UniProt Q9HCG7)
# TYMS: Thymidylate synthase (TYMS, Homo sapiens, UniProt P04818)
Compound,target,test,system,conditions,scale,measurement,result
CC(=O)N[C@@H](CC(=O)O)C(=O)N[C@@H](CC(C)C)C(=O)N[C@@H](C)C(=O)N[C@@H](CC(=O)O)C(=O)COC(=O)c1c(C)cccc1C,CASP3,"enzyme activity, inhibitor",,,,kinact/KI,472000 M⁻¹ s⁻¹
Fc1ccc(Nc2nc(NC3CCCCC3)c3ccccc3n2)cc1F,"Beta-2 adrenergic receptor (ADRB2, Homo sapiens, UniProt P07550, I159A)","β-arrestin2 recruitment, antagonist, BRET",,mutant I159A,baseline: isoprenaline maximal response,maximal inhibition,1.6%
CC1(C)C[C@@H](Nc2cccc(-c3sc(C(=O)O)c(OCC(=O)O)c3Cl)c2)CCN1S(=O)(=O)Cc1cccc(NC(=O)CN2CCC(c3ccc4c(c3)oc(=O)n4C3CCC(=O)NC3=O)CC2)c1 (stereo partly shown),"Tyrosine-protein phosphatase non-receptor type 2 (Ptpn2, Mus musculus, UniProt Q06180)","degrader, Western blot",B16-F10,0.01 µM,,remaining protein,70.5% and 66.9%
COc1ccc2c(CNc3ccc(C)cc3)cc(=O)oc2c1,ADRA1B,"intracellular Ca2+ mobilization, agonist",COS-7,500 µM,baseline: 3 µM ionomycin,agonist activity,14.1 ± 2.29%
C=CCn1c(N2CCN(CCc3ccccc3)CC2)nc2c1c(=O)[nH]c(=O)n2C,B4GALT1,"enzyme activity, inhibitor, UDP-Glo",,100 µM,lower means stronger inhibition,luminescence,87400 a.u.
N[C@H]1CC[C@H](Nc2nccc(-c3cccnc3Oc3ccc(NC(=O)NC4CC4)c4ccccc34)n2)CC1,"DnaJ homolog subfamily A member 3, mitochondrial (Homo sapiens, UniProt Q96EY1)","kinobead competition pulldown, item: DNAJA3",HEK293/HCT116 lysate mixture,"10 µM, 1 h, 4 °C",lower = stronger competition,log2 LFQ intensity,20.7 and 18.6 and 20.1 and 18.9
OC[C@H]1[C@@H](O)[C@H](O)[C@@H](O)CN1CCCCCOCc1ccc(-c2ccccc2)cc1F,GBA2,"inhibitor, 4MU-β-D-glucopyranoside",HEK293T homogenates overexpressing GBA2,,baseline: GCS IC50 over GBA2 IC50,selectivity ratio,13
N#CN1CC[C@H](C(=O)Nc2nc3c(s2)CN(C(=O)Cn2cc(COCCOCCOCCOCCNC(=O)CCCC[C@@H]4SC[C@@H]5NC(=O)N[C@@H]54)nn2)CC3)C1,TYMS,"probe binding, affinity probe, neutravidin pull-down LC-MS/MS","HEK293T, cell lysate","5 µM, 1 h, single replicate, unit not given",higher = more pulled down,iBAQ abundance,4.71e+08 and 8.27e+08 and 1.05e+08
OC[C@@H]1[C@@H](O)[C@H](O)[C@@H](O)CN1CCCCCOCc1ccc(-c2ccc(Cl)cc2)cc1,GBA2,"inhibitor, 4MU-β-D-glucopyranoside",HEK293T homogenates overexpressing GBA2,,baseline: GBA1 IC50 over GBA2 IC50,selectivity ratio,250
COc1ccc([C@H]2N[C@H](C(=O)O)C(C)(C)S2)c(O)c1,B4GALT1,"enzyme activity, inhibitor, UDP-Glo",,10 µM,lower means stronger inhibition,luminescence,65700 a.u.
N=C(N)c1ccc(-c2ccc(-c3ccc(C(=N)N)cc3)s2)cc1,"Protein arginine N-methyltransferase 5 (PRMT5, Homo sapiens, UniProt O14744)","enzyme activity, inhibitor, radiometric",,20 µM,,remaining activity,61.3%
Cc1cc(C)cc(COc2cc3c(cc2OCc2cc(C)cc(C)c2)C2CC(O)(Cc4cn(CCOCCOCCNC(=O)CCCCC5SCC6NC(=O)NC65)nn4)CC(C)N2CC3)c1 (stereo not shown),"Cullin-associated NEDD8-dissociated protein 1 (Homo sapiens, UniProt Q86VP6)","biotinylated probe pull-down, item: CAND1",,10 µM probe,baseline: heavy over light,SILAC ratio,2.25
C#CCOC(=O)[C@@]1(C)C=C(C(=O)OC(C)(C)C)C(=O)CC1,"Mitogen-activated protein kinase 1 (MAPK1, Homo sapiens, UniProt P28482)","enzyme activity, D-SENSOR",,"0.02032 µM, single replicate",,normalized kinase activity,1.03 and 1.1 and 1.04
O=c1cc(NCCc2ccccc2)c2ccccc2o1,ADRA1B,"intracellular Ca2+ mobilization, agonist",COS-7,500 µM,baseline: 3 µM ionomycin,agonist activity,16.3 ± 2.13%
CC(=O)N[C@@H](CCC(N)=O)C(=O)N[C@@H](CC(C)C)C(=O)N1CCC[C@H]1C(=O)N[C@@H](CC(=O)O)C(=O)COC(=O)c1c(C)cccc1C,CASP3,"enzyme activity, inhibitor",,,,kinact/KI,58900 M⁻¹ s⁻¹
CCCCCOCCCCCN1C[C@H](O)[C@@H](O)[C@H](O)[C@@H]1CO,GBA2,"inhibitor, 4MU-β-D-glucopyranoside",HEK293T homogenates overexpressing GBA2,,baseline: GCS IC50 over GBA2 IC50,selectivity ratio,10
CCCCCC=CC=C1C(=O)C=CC1CC=CCCCC(=O)O (stereo not shown),"Cytoplasmic dynein 1 light intermediate chain 1 (DYNC1LI1, Homo sapiens, UniProt Q9Y6G9)",competitive isoTOP-ABPP,Ramos soluble proteome,"100 µM, 60 min, with: iodoacetamide probe","baseline: DMSO over compound-treated, higher = stronger cysteine blockade",isoTOP-ABPP competition ratio,5
NCc1ccc(Cl)cc1,"Amine oxidase [flavin-containing] A (Maoa, Rattus norvegicus, UniProt P21396)","enzyme activity, substrate",,pH 7.5,,Km,54 µM
OC[C@@H]1[C@@H](O)[C@H](O)[C@@H](O)CN1CCCCCOCc1ccc(-c2ccc3c(c2)OCO3)cc1,GBA2,"inhibitor, 4MU-β-D-glucopyranoside",HEK293T homogenates overexpressing GBA2,,baseline: GBA1 IC50 over GBA2 IC50,selectivity ratio,250
O=C(CC12CC3CC(CC(C3)C1)C2)NCCOCC(=O)NC1CCN(S(=O)(=O)c2cc(C(=O)Nc3cc(F)c(F)c(F)c3)ccc2F)CC1,"Capsid protein (C, Hepatitis B virus genotype D subtype ayw, UniProt P03146)",surface plasmon resonance,,25 °C,,koff,0.000221 s⁻¹
CN(C)S(=O)(=O)c1ccc(S(=O)(=O)N2CCC(n3c(=O)[nH]c4ccccc43)CC2)cc1,"ATP-dependent helicase NAM7, helicase domain (NAM7, Saccharomyces cerevisiae, UniProt P30771)",inhibitor,,concentration not given,baseline: untreated,ATPase activity,94.3%
CCCC[C@H](NC(=O)[C@H](CC(C)C)NC(=O)[C@H](CCC(N)=O)NC(=O)[C@@H](NC(=O)[C@H](CCC(=O)O)NC(=O)C(C)(C)NC(=O)[C@@H](NC(=O)C1(N)CCCC1)C(C)C)[C@@H](C)CC)C(=O)N[C@@H](Cc1c[nH]cn1)C(=O)N[C@@H](CCC(N)=O)C(=O)N[C@@H](CCCCNC(=N)N)C(=O)N[C@@H](C)C(=O)N[C@@H](CCCCNC(=O)[C@H](CCCNC(=N)N)NC(=O)CCCCCCCCCCCCCCCCC(=O)O)C(N)=O,"Parathyroid hormone/parathyroid hormone-related peptide receptor (PTH1R, Homo sapiens, UniProt Q03431)","cAMP response, agonist, GloSensor cAMP",GP-2.3,ligand-on phase,,Emax (normalized AUC),110 ± 3%
Cc1cc(=O)oc2cc(NC(=O)CCCCCCC(=O)NO)ccc12,"Histone deacetylase 8 (HDAC8, Homo sapiens, UniProt Q9BY41)",ITC,Tris-HCl buffer,278 K,,TΔS°,4.47 kcal/mol
CCCCCC(O)/C=C/C=O (stereo not shown),TYMS,competitive isoTOP-ABPP,Ramos soluble proteome,"100 µM, with: iodoacetamide probe","baseline: DMSO over compound-treated, higher = stronger cysteine blockade",isoTOP-ABPP competition ratio,2.1
COC(=O)CN1CCCc2cc3cc(C(=O)NC(Cc4cccc(Cl)c4)C(=O)NCC=CS(=O)(=O)c4ccccc4)c(=O)oc3cc21 (stereo not shown),"Cathepsin B (CTSB, Homo sapiens, UniProt P07858)",inhibitor,,with: Z-Arg-Arg-pNA,,kinact/Ki,844 M⁻¹ s⁻¹
COc1cccc(C)c1C(=O)N[C@@H](Cc1ccc(O)cc1)C(=O)O,B4GALT1,"enzyme activity, inhibitor, UDP-Glo",,100 µM,lower means stronger inhibition,luminescence,94700 a.u.
C#CCCCCNC(=O)c1ccc(N(C(=O)C=C)c2ccc(Br)cc2)cc1,"Neutral cholesterol ester hydrolase 1 (NCEH1, Homo sapiens, UniProt Q6PIU2)",mass spectrometry profiling,H460 cell lysate,"100 µM over 10 µM, UniProt Q6PIU2",baseline: high over low concentration,reactivity ratio,0.794
CC(C)[C@@H]1NC(=O)[C@H](Cc2ccccc2)NC(=O)CSC[C@@H](C(N)=O)NC(=O)[C@H](CCC(=O)O)NC(=O)[C@H](CO)NC(=O)[C@H](Cc2c[nH]c3cccc(Cl)c23)NC(=O)[C@H](C2CCCCC2)NC(=O)[C@H](C(C)C)NC(=O)[C@H](Cc2ccc(O)cc2)NC(=O)[C@H](CC(=O)O)NC(=O)[C@H](Cc2c[nH]c3ccccc23)NC(=O)[C@H](Cc2ccc(N)nc2)NC(=O)[C@H](Cc2c[nH]c3ccc(Cl)cc23)NC(=O)[C@H](CCC(=O)O)NC1=O,"Interleukin-1 receptor-like 2 (IL1RL2, Homo sapiens, UniProt Q9HB29)","reporter gene (SEAP), inhibitor, HEK-Blue IL-36R reporter",HEK-Blue IL-36R cells,"0.14 µM, 6 h, with: IL-36γ 1 ng/mL",,remaining activity,91.8%
CC(C)Oc1cc(Cl)ccc1CNc1cc(-c2ccccc2)nc2ncnn12,"G-protein coupled receptor 3 (GPR3, Homo sapiens, UniProt P46089)",cAMP reporter,human cells,10 µM,higher is more cAMP,cAMP luminescence,4650 a.u. and 2410 a.u. and 4070 a.u. and 1680 a.u. and 6940 a.u. and 3430 a.u. and 5860 a.u. and 6700 a.u.
O=C1c2sc(-c3ccc(N4CCC(F)C4)nc3F)nc2CCN1c1cccnc1 (stereo not shown),"TAR DNA-binding protein 43, aggregated (TARDBP, Homo sapiens, UniProt Q13148)",radioligand binding,"human, FTLD-TDP type B extract",with: radioligand 52.06 nM,,specific binding,3.73 nM and 4.42 nM
OC[C@H]1[C@@H](O)[C@H](O)[C@@H](O)CN1CCCCCOCc1ccsc1,GBA2,"inhibitor, 4MU-β-D-glucopyranoside",HEK293T homogenates overexpressing GBA2,,baseline: GBA1 IC50 over GBA2 IC50,selectivity ratio,46900
CC(=O)N[C@H](C(=O)N[C@@H](CCO)C(=O)N[C@H](C(=O)N[C@@H](CC(=O)O)C(=O)COC(=O)c1c(C)cccc1C)C(C)C)C(C)C,CASP3,"enzyme activity, inhibitor",,,,kinact/KI,41800 M⁻¹ s⁻¹
Nc1nc(SCc2ccc(Cl)cc2)nn1S(=O)(=O)c1ccc(-c2ccccn2)s1,"Lysophospholipase-like protein 1 (LYPLAL1, Homo sapiens, UniProt Q5VWZ2)","enzyme activity, activator, gel-based ABPP",purified protein,"concentration not given, with: FP-rhodamine",baseline: DMSO,probe labeling increase,1.5 fold
COCCNC(=O)c1ccc(NC(=O)C(C(F)(F)F)C(F)(F)F)cc1,"Chymotrypsinogen A (Bos taurus, UniProt P00766)","enzyme activity, inhibitor",,,,IC50,inactive
CCCCCN1C[C@H](O)[C@@H](O)[C@H](O)[C@@H]1CO,GBA2,"inhibitor, 4MU-β-D-glucopyranoside",HEK293T homogenates overexpressing GBA2,,baseline: GCS IC50 over GBA2 IC50,selectivity ratio,60
CC[C@H](C)[C@@H]1NC(=O)[C@H](Cc2ccccc2)NC(=O)[C@H](CCC(=O)O)NC(=O)[C@H](CCCNC(=N)N)NC(=O)CNC(=O)[C@@H](NC(=O)[C@H](CC(C)C)NC(=O)[C@H](CCCNC(=N)N)NC(=O)[C@@H](NC(=O)CNC(=O)[C@H](Cc2ccc(O)cc2)NC(=O)[C@@H]2CCCN2C(=O)[C@H](C)NC(=O)[C@H](C)NC(=O)[C@@H](N)CCCNC(=N)N)C(C)C)CSSC[C@@H]2NC(=O)[C@@H](NC(=O)[C@H](CO)NC(=O)[C@H](CO)NC(=O)[C@H](CO)NC(=O)[C@H](CC(C)C)NC(=O)CNC(=O)[C@H](C)NC(=O)[C@H](CC(C)C)NC(=O)[C@@H](NC(=O)[C@@H](N)CC(=O)O)C(C)C)CSSC[C@H](NC(=O)CNC(=O)[C@H](Cc3c[nH]c4ccccc34)NC(=O)[C@H](CCCCN)NC2=O)C(=O)N[C@@H](CO)C(=O)N[C@@H](CCCCN)C(=O)N[C@@H](CO)C(=O)N[C@@H](CCC(=O)O)C(=O)N[C@@H]([C@@H](C)CC)C(=O)N[C@@H](CO)C(=O)N[C@@H](CO)C(=O)N[C@@H](CC(C)C)C(=O)N[C@H](C(=O)O)CSSC[C@@H](C(=O)NCC(=O)NCC(=O)N[C@@H](CO)C(=O)N[C@@H](CCCNC(=N)N)C(=O)N[C@@H](Cc2c[nH]c3ccccc23)C(=O)O)NC(=O)[C@H]([C@@H](C)O)NC(=O)[C@H](Cc2ccccc2)NC(=O)[C@H]([C@@H](C)CC)NC(=O)[C@H](C(C)C)NC(=O)[C@H](C)NC(=O)[C@H](CCCNC(=N)N)NC1=O,"Relaxin-3 receptor 2 (RXFP4, Homo sapiens, UniProt Q8TDU9, H299A)",,,H299A mutant,baseline: wild type,change in Emax,-25.4% and -5.8% and -10.4%
C[C@H](OCCCCCN1C[C@H](O)[C@@H](O)[C@H](O)[C@H]1CO)c1ccc(-c2ccccc2)cc1,GBA2,"inhibitor, 4MU-β-D-glucopyranoside",HEK293T homogenates overexpressing GBA2,,baseline: GBA1 IC50 over GBA2 IC50,selectivity ratio,133000
CC(C)C(O)C#Cc1ccc2[nH]c3c(c2c1)-c1nc(N)ncc1CC3 (stereo not shown),"Phosphatidylinositol 5-phosphate 4-kinase type-2 gamma (PIP4K2C, Homo sapiens, UniProt Q8TBX8)","binding, competition with immobilised ligand",,1 µM,,remaining binding,1.9%
CC(=O)N[C@@H](CCC(C)C)C(=O)N[C@@H](CCCC(=O)O)C(=O)N[C@@H](CO)C(=O)N[C@@H](CC(=O)O)C(=O)COC(=O)c1c(C)cccc1C,CASP3,"enzyme activity, inhibitor",,,,kinact/KI,27400 M⁻¹ s⁻¹
OC[C@@H]1[C@@H](O)[C@H](O)[C@@H](O)CN1CCCCCCC12CC3CC(CC(C3)C1)C2,GBA2,"inhibitor, 4MU-β-D-glucopyranoside",HEK293T homogenates overexpressing GBA2,,baseline: GBA1 IC50 over GBA2 IC50,selectivity ratio,6
